Published values pooled from the literature.
Each numbered part is a random draw from the data of one study; scales do not carry over between parts.

Study 1 — method: RNA Bind-n-Seq; molecule type: RNA; medium: in vitro; tested at: 365 nM; baseline: no-protein control; direction: higher = stronger binding
Target: RNA binding protein fox-1 homolog 2, RRM domain, GST-SBP tag (RBFOX2, Homo sapiens, UniProt O43251-10, residues 100-194)
Notes: natural RNA segment, single round, ends assumed
Residues (chain): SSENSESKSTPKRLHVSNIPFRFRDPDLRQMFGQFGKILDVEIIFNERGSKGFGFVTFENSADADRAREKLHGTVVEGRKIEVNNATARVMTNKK
Sequence | RBNS enrichment (R)
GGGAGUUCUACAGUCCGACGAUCGUCCCUGAGACAUAAGCGAGGUAGAUUCAGCCAUCCUCACCCUCAGACUUGAGGUCCCCACCCAGGCCAAGCCGGCCCCCCGUACCCCUUGCCUGGGAGCAAACCGCCAGUGGAAUUCUCGGGUGCCAA | 0.263
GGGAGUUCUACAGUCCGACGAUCCCUCAGGAAGCUUGGAACACCUCAGUCACAAGCCUGUCAGUUUCUUCCUCUGGGAUGGGAGUCCCGCAGCAUCGAGACUGGAAACGUACACAUUUCCCCCAGGGACCCUGUGGAAUUCUCGGGUGCCAA | 0.392
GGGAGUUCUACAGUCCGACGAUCGAAGAGUAGUGCAAAUUUACAGAGCACUGUCAAAGACUGACAGAAAAAAAAAAGAUCUGCUCUGUAGAAAGAAUUGUCUGCCAUUACAGGGUCAAGAAAAUGAAUGCGCCUGGAAUUCUCGGGUGCCAA | 2.4
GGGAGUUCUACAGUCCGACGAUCGUACUAUUUAGCUUCAGUGUACUAGUCCUGCCACCUGUGUAUUUUUAGGGUGCUAUGGAAAUAAUGAAAAGAAACGGGGAUUUCAGAAGAAAAUUGUAACCAAAUUCAUAUGGAAUUCUCGGGUGCCAA | 0.665
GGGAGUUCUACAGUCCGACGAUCUCUUGCCUCCCUCACGGGGCGUCACCCCCAGCCCAGCUCCGUUGUACAUAAAUGCCUUGUGGCAGAGCUCCCGGUGAACUUCUGGAUCCCGUUUCUGAUGCAGACUCUUGUGGAAUUCUCGGGUGCCAA | 0.645
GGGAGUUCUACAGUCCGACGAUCUACCUAACCCUUUCUUAUUUGUAUUUGUUUUAGUAUUGUGAAGUUGUGUUAAAUAGUACUAGCUAGAAAUACAAAUUUCUGGUUAUCAUUUCUCUUCCCUGUGGCACUUGUGGAAUUCUCGGGUGCCAA | 0.448
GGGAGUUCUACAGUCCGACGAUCUUGUGAUCUGUUGUAAUAUCAGUUACAGUGGCAGUAUUGAGAAUAAGAAAUAGUUUAACAGGAAAAAACGUUUAAGCACAAACAUUUUUAAGAUCUUAUGUUUUAAGUGGUGGAAUUCUCGGGUGCCAA | 0.494
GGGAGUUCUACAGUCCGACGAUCAAGCAUCUUUUGGUUAUCAGUUAAAUUGAGGUGGACAUUAUUUCCCCAAUUUCACAACAGGAUUCAUAUUGUUAAUUUAUAAAGCUAGACUUGGAGAAUUAAGGACUGAGUGGAAUUCUCGGGUGCCAA | 0.503
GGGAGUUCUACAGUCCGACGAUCCCUUUUCAGGGUAAUCUUUGUGGCACAAACGAUAGCAUUUCCAAGCUUUAGAGUUUUCUGAAUUCCUGCGCCUUCCUGACGUGAGCCCUGAGCGAUCUUCUAUGCAGUUCUGGAAUUCUCGGGUGCCAA | 0.327
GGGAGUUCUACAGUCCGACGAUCAGAGUGCCAACCAAGCCUUCCUGGGCUUUACAUAUGUGGCACCUUCUGUCCUGGACAGCAUCAAAGAGGGCUUCUCCUUCCAGCCCAAGCUGCGUUCUCCCAGACGCCUUUGGAAUUCUCGGGUGCCAA | 0.943
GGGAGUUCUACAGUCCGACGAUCGGGAAAGUAUUUUCAAUAUUUAAAAAAAUUAAGCUGAAGAAAAACUGAUCUUUGAUCCUCCUGUGAAGAUGGACUUGCCUGGCCUUAGUCAUGUGGAAAUGGUGUACCCGUGGAAUUCUCGGGUGCCAA | 0.762
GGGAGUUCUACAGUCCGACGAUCUCACCAUGUGAACAUAGUACCUCAGUUCUGUCCUUGGCUGCAAUCGUUGUGUGCUCAGUGUUUUCUCAUAGGCACCAGGGACAGGCUUCUCAAGGCAGUAUGAUAUACCCUGGAAUUCUCGGGUGCCAA | 0.576

Study 2 — method: protein-binding microarray; molecule type: double-stranded DNA, one strand shown; medium: in vitro; tested at: 2540 nM top; notes: 60-bp whole probe; together with: salmon DNA 0.4 mg/ml; baseline: random background probes; direction: higher = stronger binding; all sequences stand within: GCCTAGCAC … GTCTTGATTCGCTTGACGCTGCTG
Target: Interferon regulatory factor 3, full length, phosphomimetic (IRF3, Homo sapiens, UniProt Q14653, residues 1-427, S386D/S396D/S398D/S402D/T404D/S405D)
Sequence of UniProt Q14653 (whole entry, unmodified, looked up): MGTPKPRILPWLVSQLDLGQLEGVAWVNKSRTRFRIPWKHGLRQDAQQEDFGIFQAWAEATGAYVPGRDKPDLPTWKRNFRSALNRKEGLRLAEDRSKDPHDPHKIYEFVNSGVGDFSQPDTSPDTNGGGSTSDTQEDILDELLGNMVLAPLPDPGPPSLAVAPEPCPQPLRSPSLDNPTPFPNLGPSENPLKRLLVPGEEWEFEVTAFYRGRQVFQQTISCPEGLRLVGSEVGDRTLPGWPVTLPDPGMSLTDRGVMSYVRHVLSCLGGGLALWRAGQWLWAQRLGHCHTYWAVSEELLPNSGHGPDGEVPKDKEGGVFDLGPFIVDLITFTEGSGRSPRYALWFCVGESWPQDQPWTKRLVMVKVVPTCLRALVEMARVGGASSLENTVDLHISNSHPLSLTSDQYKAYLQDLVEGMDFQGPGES
Sequence | fitted relative affinity
TTAGAACTGGGGGATCGATTAGTGCTA | -0.191 z-score
GACGGTCTTCTACTGCTGACGTGCTAG | -0.114 z-score
TTAGACATCAGTCTCGATTAGTGCTAG | 0.0196 z-score
TTAGAACTGAGAGTGGATTAGTGCTAG | -0.505 z-score
GACGCTATCGGGACTGGGGACGTGCTA | -0.104 z-score
GACGAGTCCAGTTTCGAGACGTGCTAG | 2.2 z-score
TTAGGTATCGAGTTTCGGTTAGTGCTA | 3.69 z-score
GAGGGTCTCGGTATCGGGACGTGCTAG | 0.808 z-score
GACGATATCAGGATCGAGACGTGCTAG | 0.608 z-score
TCATACATGGGTATAGAACTGTGCTAG | -0.215 z-score
TCTGTTTTCTCCATGGAAGAGTGCTAG | 2.07 z-score
CACATCTGCTGTGGGAGCACGTGCTAG | 0.698 z-score
TTAGATATCGGTTTTCGATTAGTGCTA | 4.06 z-score
TTAGGACTGGGGTTTCGTTTAGTGCTA | 1.07 z-score
GGCGGTATCGGACTGGGGACGTGCTAG | 1.41 z-score
GTCGGTCTCCTACTGCTGACGTGCTAG | 2.51 z-score
TTAGGTATCGACTTTCGGTTAGTGCTA | 2.1 z-score
TTAGATTTCGGGACTCGATTAGTGCTA | 1.21 z-score
TTAGGACTAGGGACTGGGTTAGTGCTA | -1.04 z-score
CCCTATTTAAGGCATCTGCAGGTGCTA | 1.33 z-score
ATTTGTTTCCATTTTCTGAAGTGCTAG | 9.37 z-score

Study 3 — method: protein binding microarray; molecule type: double-stranded DNA, one strand shown; medium: in vitro; tested at: not given; baseline: not given; direction: higher = stronger binding
Target: Histone acetyltransferase KAT6A, winged helix 2, GST fusion (KAT6A, Homo sapiens, UniProt Q92794, residues 85-181)
Notes: 8-mer, flanks averaged, mean of 2 arrays, mostly near background
Construct (chain): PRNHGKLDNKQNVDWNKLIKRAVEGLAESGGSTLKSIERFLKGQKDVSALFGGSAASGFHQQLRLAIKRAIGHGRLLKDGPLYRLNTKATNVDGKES
Sequence | E-score
AAGCCTGG | 0.0269
GTAGAGAC | 0.0382
GATAGATA | -0.0165
CATGCCGG | 0.262
ATATCGCA | -0.0559
AGGTCCGG | 0.188
ATAAACGA | 0.0218
GAAGTCAA | -0.059
GATGTATA | 0.0473
ACAGATGC | -0.13
ATGAGATA | -0.0177
GGTCGGTA | -0.0934
GCGAGCAA | -0.0831
CACGGCAG | 0.159
GGGGGGTA | -0.0999
ACTAATTC | 0.0559
AAACCCAG | 0.119
ACTTCCTA | -0.0755
AAACCAGG | -0.0514
CCCGTTAA | -0.126
TCGGCGAA | 0.133
CCTGTCAA | -0.00627
GAGTAACA | -0.00591

Study 4 — method: RNA Bind-n-Seq; molecule type: RNA; medium: in vitro; tested at: 100 nM; baseline: input RNA pool; direction: higher = stronger binding
Target: RING finger protein unkempt homolog, zinc fingers 1-6, SBP tag (UNK, Homo sapiens, UniProt Q9C0B0, residues 30-357)
Sequence of UniProt Q9C0B0 (30-357, looked up): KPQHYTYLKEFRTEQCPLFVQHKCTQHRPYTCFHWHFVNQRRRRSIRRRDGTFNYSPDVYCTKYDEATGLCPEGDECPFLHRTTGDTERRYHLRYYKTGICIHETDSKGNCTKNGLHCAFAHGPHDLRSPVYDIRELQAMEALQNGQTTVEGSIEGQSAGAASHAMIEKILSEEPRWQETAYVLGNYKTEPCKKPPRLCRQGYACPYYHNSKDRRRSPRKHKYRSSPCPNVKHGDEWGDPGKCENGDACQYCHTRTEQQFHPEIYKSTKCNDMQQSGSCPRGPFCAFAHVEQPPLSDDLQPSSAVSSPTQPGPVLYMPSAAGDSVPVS
Notes: RNA with constant flanks, vertebrate orthologous sites, ends assumed
Sequence | bound/input enrichment [ratio]
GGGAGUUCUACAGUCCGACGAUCGUGUAGAAAAAACUUUUCAUUGACACCCUCCCAUAUUAUGAAAUUCCCUAGAAAUUUGUUUGAAAUCUUAAUUUUUCUAAUCCAUGCUCACUGUACUAGUCAUUUUUAGCCCAUAAUCGACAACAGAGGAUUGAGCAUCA | 2.3
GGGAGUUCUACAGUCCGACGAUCAGAGGAUUAGGUUCCAUCCUUUACGUGUUUAAAAAAAAGCAUAAAAACAUUUUAAAAACAUAGAAAAAUUCAGCAAACCAUUUUUAAAGUAGAAGAGGGUUUUAGGUAGAAAAACAUAUUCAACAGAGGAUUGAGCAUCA | 0.828
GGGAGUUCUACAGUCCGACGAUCCUCUUUCCUAGGUUGGAUCCAGUGGGAAAGUCAUAGGAAUUGAUCACAUUAAGGAGUUAGUAGAUGACUCAGUAAAUAAUGUCAGAAAGGAUGAUCCACUGCUUUUGUCUUCAGGGAGAGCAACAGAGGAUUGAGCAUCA | 0.513
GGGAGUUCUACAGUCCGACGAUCCCUCCUGAACUUCUCUUGCUUUCAAGCUGUGGCUGUUUCAGAUACUGGUUUAAUUUUCUUUGCAGUUUUCCCCUGUCCCACCUUUUUCCCCUUCUUUCCAAGGUUUGACUCAUGGAUUGUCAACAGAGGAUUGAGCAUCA | 0.98
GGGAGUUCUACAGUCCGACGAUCAGCCCCGCUUUUAGGUGUGAUAUCUAGGCUUUCAUUCCAGUUGUUUUUGUCCUUUCUUGUUUAGAUACUGAUCUUUUAAAUUCUUGCAUUUUAGUAAGAAAGCUAUCUUUUUAUGGAUGUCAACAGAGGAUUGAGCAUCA | 0.732
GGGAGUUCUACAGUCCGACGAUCCUACGUGAAAUAUGGAUGCAGUGUAUAAAAAGGCAGUGACUUCAGCUUUAUAUAUAUAUAUUGUUAGUUUUAGAGUUAUUCACAUUUAUUUAAACUUUUAGAUUGGAUUGUUUGCUAUUGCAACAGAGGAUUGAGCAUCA | 2.19
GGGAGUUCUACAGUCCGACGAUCCAAUUCGAUGGUCGAAGGCUCGGAACUCAAGAAGGUCCGCUCCAACUCUAGAAUUUACCACCGGUAUUUUCUCUUAGAUGCCGACAUGCAGUCCCUGCGAUGGGAGCCAUCCAAGAAGGACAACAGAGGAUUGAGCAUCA | 0.146
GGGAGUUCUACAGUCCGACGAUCGUGACUUUGGAAGUCCUCACUGCCGUGGUGUGGAGACUGUGUAGUCCCGACGUUCCGGGUUUGUCUGUCUGUCGUGGACUUGGGAGUUUUGCUGCAGUUAUGCUUCGCCAGAUCAUCGGUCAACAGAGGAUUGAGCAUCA | 0.354
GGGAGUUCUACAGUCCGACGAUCGUGACUUUGGAAGUCCGCACAGUGUCAGUGCAGAUACUAUUUAGCCCGGGACUUGGUGACUGGGCUCAUUUUCUUCUUUCCAAUCGUAGGUCUCUGCCGCAAACAUGCUCCGCCACAUCUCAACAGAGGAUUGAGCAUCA | 0.562
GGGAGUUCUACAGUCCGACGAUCAUAAAAUGUGUAUCAAAUACUGGAUAUAAAAUUAAAUCAUCAUUUAGAAUAAGGUUAAUUUGUUAAGAUUAAGCUACAAAUAGGUUUCCUUAAACCAGAGAUGCACUGCCCUUGUCAGAACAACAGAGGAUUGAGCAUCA | 0.279
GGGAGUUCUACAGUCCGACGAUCGUUGUGACCCAUUUAACAUACACAAAAAACUAGCCAAAAAAAAUUUGCAUGUGAUUGACUUAGAUGAUGCCACUUUCCUGAGUGCAAAAUUUGGAAGACAGCUUGUACCCGGUUGGAAGCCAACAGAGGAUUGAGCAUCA | 1.51

For quick reference, copied from above (study 3):
Sequence | E-score
ATAAACGA | 0.0218
GAGTAACA | -0.00591
ATATCGCA | -0.0559
CCCGTTAA | -0.126
AAACCAGG | -0.0514
ATGAGATA | -0.0177
CCTGTCAA | -0.00627
GAAGTCAA | -0.059
